{"data": "Published values pooled from the literature", "note": "Lines come from different studies, so protocols differ. “And” joins repeats or separate records; there may be more than shown. ± marks the error that the study gave."}
{"Compound": "CN1CCCNC(=O)c2cccc(c2)C(=O)NCCCN(C)CCCNc2cccc3c2C(=O)c2cccc(c2C3=O)NCCC1", "cell line": "SAS", "assay": "cell growth or viability, CCK-8", "setting": "15 µM, 48 h", "quantity": "viability", "value": "4.54%"}
{"Compound": "N#Cc1cccc(-c2ccc(=O)n(Cc3cccc(-c4ncc(OCC5CCN(CC(=O)N6CCN(c7ccc8c(c7)C(=O)N(C7CCC(=O)NC7=O)C8=O)CC6)CC5)cn4)c3)n2)c1 (centres unmarked)", "cell line": "Caco-2", "assay": "transwell monolayer", "setting": "2 µM, 120 min, pH 7.4, 0.1% DMSO, with: Ko143 10 µM", "quantity": "Papp B-A", "value": "0.5 ± 0.05 ×10⁻⁶ cm/s"}
{"Compound": "Cc1ncsc1-c1ccc(CNC(=O)[C@@H]2C[C@@H](O)CN2C(=O)[C@@H](NC(=O)CN2CCN(C3CN(CCNC(=O)C[C@@H]4N=C(c5ccc(Cl)cc5)c5c(sc(C)c5C)-n5c(C)nnc54)C3)CC2)C(C)(C)C)cc1", "cell line": "Sf9", "test system": "culture medium", "quantity": "kinetic solubility", "value": "203 µM"}
{"Compound": "Cc1cc(C)nc(NC(=S)N2CCN(c3ccc(C(F)(F)F)cn3)CC2)c1", "cell line": "MDCK-MDR1", "quantity": "Papp A-B", "value": "10 ± 1 ×10⁻⁶ cm/s"}
{"Compound": "O=C1CCC(N2Cc3cc(C(=O)O)c(F)cc3C2=O)C(=O)N1 (centres unmarked)", "cell line": "Hep3B", "assay": "CellTiter-Glo", "setting": "concentration not given, 72 h", "quantity": "minimum viability", "value": "43.1 ± 3.28%"}
{"Compound": "Cc1cccnc1-c1csc(C(=O)Nc2cc(Cl)cc(NS(C)(=O)=O)c2)c1", "cell line": "MCF-10A", "assay": "cell growth or viability, ATP luminescence", "setting": "10 days", "quantity": "CC50", "value": "> 10 µM"}
{"Compound": "COc1ccc2ncc(F)c(CC[C@@]3(O)CO[C@@H]4[C@@H](NCc5ccc(Cl)c(Cl)c5)CO[C@@H]43)c2n1", "cell line": "THP-1", "assay": "cytotoxicity", "quantity": "IC50", "value": "22.8 µg/mL"}
{"Compound": "Cc1ccc2c(c1)C1CC(C)(N2)c2c(C)nc3ccc(C)cc3c21 (centres unmarked)", "cell line": "Huh-7", "assay": "cell growth or viability, MTT", "quantity": "CC50", "value": "7.5 µM"}
{"Compound": "COc1ccc2ncc(F)c(C(O)C[C@H]3OC[C@H](NCc4ccc5c(c4)OCCO5)CO3)c2c1 (some centres unmarked)", "cell line": "THP-1", "assay": "cytotoxicity", "quantity": "IC50", "value": "65.4 µg/mL"}
{"Compound": "CN(C)C(=O)c1ccnc(N2Cc3cn(Cc4ccc(F)cc4F)nc3C2)n1", "cell line": "MDCK-MDR1", "scale": "reference: B-A over A-B permeability", "quantity": "efflux ratio", "value": 1.4}
{"Compound": "COc1ccc2ncc(F)c(C(O)C[C@H]3OC[C@H](NCc4ccc(Cl)c(Cl)c4)CO3)c2n1 (some centres unmarked)", "cell line": "THP-1", "assay": "cytotoxicity", "quantity": "IC50", "value": "27.9 µg/mL"}
{"Compound": "CC(=O)OC[C@H]1O[C@@H]([Se]SC[C@H]2O[C@@H]3OC(C)(C)O[C@@H]3[C@H]3OC(C)(C)O[C@H]32)[C@H](OC(C)=O)[C@@H](OC(C)=O)[C@@H]1OC(C)=O", "cell line": "THP-1", "assay": "cell growth or viability, WST-1", "setting": "24 h", "quantity": "CC50", "value": "~10 µM"}
{"Compound": "Cc1cc(C)nc(NC(=S)N2CCN(c3ccncc3)CC2)c1", "cell line": "MDA-MB-231", "assay": "cell viability, CellTiter-Glo", "setting": "4 days", "quantity": "EC50", "value": "> 100 µM"}
{"Compound": "Cc1ccc2c(c1)nc(NC(=O)c1cccc(C(F)(F)F)c1)n2[C@H]1CC[C@H](N)CC1", "cell line": "NIH 3T3", "assay": "cytotoxicity", "setting": "4 days, mean value", "quantity": "CC50", "value": "4.38 µM"}
{"Compound": "COc1ccc2nccc(CC[C@H]3OC[C@H](NC(=O)c4ccc(Cl)cc4)CO3)c2c1", "cell line": "THP-1", "assay": "cytotoxicity", "quantity": "IC50", "value": "15.6 µg/mL"}
{"Compound": "Cc1cc(C)nc(NC(=S)N2CCN(Cc3ccc(C(F)(F)F)cc3)CC2)c1", "cell line": "MDCK-MDR1", "quantity": "Papp B-A", "value": "5.7 ± 1 ×10⁻⁶ cm/s"}
{"Compound": "CCCc1c(O)c(O)cc(C(=O)O)c1COC1OC(CO)C(O)C(O)C1O (centres unmarked)", "cell line": "HeLa, SW480 and HCT-116", "assay": "CCK-8", "setting": "80 µM, 24 h", "quantity": "cytotoxicity", "value": "not toxic"}
{"Compound": "COc1ccc2nccc(CC[C@H]3OC[C@H](NC(=O)c4ccc5c(c4)NC(=O)CO5)CO3)c2c1", "cell line": "THP-1", "assay": "cytotoxicity", "quantity": "IC50", "value": "> 100 µg/mL"}
{"Compound": "CC(=O)OC[C@H]1O[C@@H]([Se]C(=O)c2ccc([N+](=O)[O-])cc2)[C@H](OC(C)=O)[C@@H](OC(C)=O)[C@@H]1OC(C)=O", "cell line": "THP-1", "assay": "cell growth or viability, WST-1", "setting": "24 h", "quantity": "CC50", "value": "> 10 µM"}
{"Compound": "COc1ccc2ncc(F)c(CC[C@@]3(O)CO[C@@H]4[C@@H](NCc5ccc(C)cc5)CO[C@@H]43)c2n1", "cell line": "THP-1", "assay": "cytotoxicity", "quantity": "IC50", "value": "38.6 µg/mL"}
{"Compound": "Cl.NCc1ccc2c(c1)CN(C1CCC(=O)NC1=O)C2=O (centres unmarked)", "cell line": "Huh-7", "assay": "CellTiter-Glo", "setting": "concentration not given, 72 h", "quantity": "minimum viability", "value": "< 50% and 35.2%"}
{"Compound": "CCOC(=O)c1ccc2c(c1)C1CC(C)(N2)c2c(C)nc3ccc(C(=O)OCC)cc3c21 (centres unmarked)", "cell line": "Huh-7", "assay": "cell growth or viability, MTT", "quantity": "CC50", "value": "19.9 µM"}
{"Compound": "Cc1cc(C(=O)Nc2nc3cccc(C)c3n2[C@H]2CCCCN(C(=O)/C=C/CN(C)C)C2)ccn1", "cell line": "NIH 3T3", "assay": "cytotoxicity", "setting": "4 days, mean value", "quantity": "CC50", "value": "9.66 µM"}
